# Results gathered from unrelated publications.
# Lines come from different studies, so protocols differ.
# RNA riboswitch: RNA riboswitch (Geobacter sulfurreducens)
# T1: RNA aptamer; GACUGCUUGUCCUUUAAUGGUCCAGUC
# T2: RNA riboswitch C30U (Lactobacillus rhamnosus); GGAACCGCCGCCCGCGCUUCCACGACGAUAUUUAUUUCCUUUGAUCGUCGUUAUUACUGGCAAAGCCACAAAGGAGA
# T3: RNA aptamer; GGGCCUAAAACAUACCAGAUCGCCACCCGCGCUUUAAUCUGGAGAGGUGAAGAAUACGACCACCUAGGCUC
# T4: RNA hairpin; CGCGAAAGCG
# T5: RNA riboswitch (Geobacter sulfurreducens); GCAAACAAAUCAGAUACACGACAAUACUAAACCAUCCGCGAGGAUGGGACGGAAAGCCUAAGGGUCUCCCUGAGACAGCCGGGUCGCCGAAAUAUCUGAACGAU
# T6: tetracycline RNA aptamer A55G; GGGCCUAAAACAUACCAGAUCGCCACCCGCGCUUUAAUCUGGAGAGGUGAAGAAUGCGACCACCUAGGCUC
# T7: G-quadruplex DNA, dimeric G-quadruplex; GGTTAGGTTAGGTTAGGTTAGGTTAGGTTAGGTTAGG
# T8: RNA riboswitch U36C; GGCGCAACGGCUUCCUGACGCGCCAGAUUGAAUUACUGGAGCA
# T9: G-quadruplex DNA (Homo sapiens); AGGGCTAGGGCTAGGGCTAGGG
# T10: RNA riboswitch A6G/A18U; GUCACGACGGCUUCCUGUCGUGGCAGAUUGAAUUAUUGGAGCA
SMILES,target,assay,conditions,Kd [nM]
NC[C@@H]1O[C@H](O[C@H]2[C@@H](O)[C@H](O[C@@H]3[C@@H](O)[C@H](N)C[C@H](N)[C@H]3O[C@H]3O[C@H](CN)[C@@H](O)[C@H](O)[C@H]3N)O[C@@H]2CO)[C@H](N)[C@@H](O)[C@@H]1O,"T1, RNA aptamer",ITC,NaCl 200 mM,9.2
NCc1c[nH]c2nc(N)[nH]c(=O)c12,"T2, RNA riboswitch C30U (Lactobacillus rhamnosus)",ITC,"pH 7.0, NaCl 0.10 M",810
C[C@H]1c2cccc(O)c2C(O)=C2C(=O)[C@]3(O)C(O)=C(C(N)=O)C(=O)C[C@@H]3[C@@H](O)[C@@H]21,"T3, RNA aptamer",fluorescence titration,"pH 7.5, 25 °C, MgCl2 10 mM",547
Nc1ccc(-c2cc3ccc(C4=NCCN4)cc3[nH]2)cc1,"T4, RNA hairpin",fluorescence titration,"1000 nM, pH 7.0",> 200000
Nc1nc2c(ncn2[C@@H]2O[C@@H]3COP(=O)(S)O[C@H]4[C@@H](O)[C@H](n5cnc6c(N)ncnc65)O[C@@H]4COP(=O)(S)O[C@H]3[C@H]2O)c(=O)[nH]1 (stereo partly drawn),"T5, RNA riboswitch (Geobacter sulfurreducens)",competition gel shift,"Mg2+ 10 mM, with: 32P c-AMP-GMP",1200
CN(C)[C@@H]1C(=O)C(C(N)=O)=C(O)[C@@]2(O)C(=O)C3=C(O)c4c(O)cccc4[C@@](C)(O)[C@H]3C[C@@H]12,"T6, tetracycline RNA aptamer A55G",fluorescence titration,"pH 7.5, 25 °C, MgCl2 10 mM",1.69
Cc1ccc(Cn2cc3c(-c4ccc5c(c4)OCO5)nnc-3c3cc4c(cc32)OCO4)cc1,"T7, G-quadruplex DNA, dimeric G-quadruplex",fluorescence titration,KCl 100 mM,1460
Nc1ncnc2c1ncn2[C@@H]1O[C@H](CSCC[C@H](N)C(=O)O)[C@@H](O)[C@H]1O,"T8, RNA riboswitch U36C",ITC,"KCl 50 mM, one-site model",13000
C[n+]1ccc(/C=N/NC(=O)c2cncc(C(=O)N/N=C/c3cc[n+](C)c4ccccc34)n2)c2ccccc21,"T9, G-quadruplex DNA (Homo sapiens)",Cy5 fluorescence quenching titration,"pH 7.2, KCl 100 mM",19.1
Cc1c2c(c(O)c3c(O)cccc13)C(=O)[C@]1(O)C(O)=C(C(N)=O)C(=O)[C@@H](N(C)C)[C@@H]1C2,"T3, RNA aptamer",fluorescence titration,"pH 7.5, 25 °C, MgCl2 10 mM",3.5
Nc1nc2c(ncn2[C@@H]2O[C@@H]3COP(=O)(O)O[C@H]4[C@@H](N)[C@H](n5cnc6c(N)ncnc65)O[C@@H]4COP(=O)(O)O[C@H]3[C@H]2O)c(=O)[nH]1,"T5, RNA riboswitch (Geobacter sulfurreducens)",competition gel shift,"Mg2+ 10 mM, with: 32P c-AMP-GMP",21
C[S+](CC[C@H](N)C(=O)O)C[C@H]1O[C@@H](n2cnc3c(N)ncnc32)[C@H](O)[C@@H]1O (stereo partly drawn),"T10, RNA riboswitch A6G/A18U",ITC,"KCl 50 mM, one-site model",47000

# A few entries again:
SMILES,target,assay,conditions,Kd [nM]
C[n+]1ccc(/C=N/NC(=O)c2cncc(C(=O)N/N=C/c3cc[n+](C)c4ccccc34)n2)c2ccccc21,"T9, G-quadruplex DNA (Homo sapiens)",Cy5 fluorescence quenching titration,"pH 7.2, KCl 100 mM",19.1
C[S+](CC[C@H](N)C(=O)O)C[C@H]1O[C@@H](n2cnc3c(N)ncnc32)[C@H](O)[C@@H]1O (stereo partly drawn),"T10, RNA riboswitch A6G/A18U",ITC,"KCl 50 mM, one-site model",47000
